Experimental data gathered from unrelated publications.
± gives the spread as reported.
sigA: sigA 1-371 (Bacillus subtilis, UniProt P06224)
UniProt P06224, sequence (whole entry, looked up): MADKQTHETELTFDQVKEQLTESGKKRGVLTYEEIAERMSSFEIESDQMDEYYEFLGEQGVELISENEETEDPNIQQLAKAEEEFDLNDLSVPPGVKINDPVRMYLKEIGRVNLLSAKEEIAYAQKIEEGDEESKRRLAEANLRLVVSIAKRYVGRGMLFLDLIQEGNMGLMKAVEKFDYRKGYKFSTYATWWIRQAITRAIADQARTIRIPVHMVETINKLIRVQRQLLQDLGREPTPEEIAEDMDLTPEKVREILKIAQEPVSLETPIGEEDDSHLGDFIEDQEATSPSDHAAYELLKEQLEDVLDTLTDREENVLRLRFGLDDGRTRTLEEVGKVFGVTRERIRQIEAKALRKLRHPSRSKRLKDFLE
BAZ2A eAT-hook: BAZ2A eAT-hook (Mus musculus, UniProt Q91YE5)
UniProt Q91YE5, sequence (whole entry, looked up): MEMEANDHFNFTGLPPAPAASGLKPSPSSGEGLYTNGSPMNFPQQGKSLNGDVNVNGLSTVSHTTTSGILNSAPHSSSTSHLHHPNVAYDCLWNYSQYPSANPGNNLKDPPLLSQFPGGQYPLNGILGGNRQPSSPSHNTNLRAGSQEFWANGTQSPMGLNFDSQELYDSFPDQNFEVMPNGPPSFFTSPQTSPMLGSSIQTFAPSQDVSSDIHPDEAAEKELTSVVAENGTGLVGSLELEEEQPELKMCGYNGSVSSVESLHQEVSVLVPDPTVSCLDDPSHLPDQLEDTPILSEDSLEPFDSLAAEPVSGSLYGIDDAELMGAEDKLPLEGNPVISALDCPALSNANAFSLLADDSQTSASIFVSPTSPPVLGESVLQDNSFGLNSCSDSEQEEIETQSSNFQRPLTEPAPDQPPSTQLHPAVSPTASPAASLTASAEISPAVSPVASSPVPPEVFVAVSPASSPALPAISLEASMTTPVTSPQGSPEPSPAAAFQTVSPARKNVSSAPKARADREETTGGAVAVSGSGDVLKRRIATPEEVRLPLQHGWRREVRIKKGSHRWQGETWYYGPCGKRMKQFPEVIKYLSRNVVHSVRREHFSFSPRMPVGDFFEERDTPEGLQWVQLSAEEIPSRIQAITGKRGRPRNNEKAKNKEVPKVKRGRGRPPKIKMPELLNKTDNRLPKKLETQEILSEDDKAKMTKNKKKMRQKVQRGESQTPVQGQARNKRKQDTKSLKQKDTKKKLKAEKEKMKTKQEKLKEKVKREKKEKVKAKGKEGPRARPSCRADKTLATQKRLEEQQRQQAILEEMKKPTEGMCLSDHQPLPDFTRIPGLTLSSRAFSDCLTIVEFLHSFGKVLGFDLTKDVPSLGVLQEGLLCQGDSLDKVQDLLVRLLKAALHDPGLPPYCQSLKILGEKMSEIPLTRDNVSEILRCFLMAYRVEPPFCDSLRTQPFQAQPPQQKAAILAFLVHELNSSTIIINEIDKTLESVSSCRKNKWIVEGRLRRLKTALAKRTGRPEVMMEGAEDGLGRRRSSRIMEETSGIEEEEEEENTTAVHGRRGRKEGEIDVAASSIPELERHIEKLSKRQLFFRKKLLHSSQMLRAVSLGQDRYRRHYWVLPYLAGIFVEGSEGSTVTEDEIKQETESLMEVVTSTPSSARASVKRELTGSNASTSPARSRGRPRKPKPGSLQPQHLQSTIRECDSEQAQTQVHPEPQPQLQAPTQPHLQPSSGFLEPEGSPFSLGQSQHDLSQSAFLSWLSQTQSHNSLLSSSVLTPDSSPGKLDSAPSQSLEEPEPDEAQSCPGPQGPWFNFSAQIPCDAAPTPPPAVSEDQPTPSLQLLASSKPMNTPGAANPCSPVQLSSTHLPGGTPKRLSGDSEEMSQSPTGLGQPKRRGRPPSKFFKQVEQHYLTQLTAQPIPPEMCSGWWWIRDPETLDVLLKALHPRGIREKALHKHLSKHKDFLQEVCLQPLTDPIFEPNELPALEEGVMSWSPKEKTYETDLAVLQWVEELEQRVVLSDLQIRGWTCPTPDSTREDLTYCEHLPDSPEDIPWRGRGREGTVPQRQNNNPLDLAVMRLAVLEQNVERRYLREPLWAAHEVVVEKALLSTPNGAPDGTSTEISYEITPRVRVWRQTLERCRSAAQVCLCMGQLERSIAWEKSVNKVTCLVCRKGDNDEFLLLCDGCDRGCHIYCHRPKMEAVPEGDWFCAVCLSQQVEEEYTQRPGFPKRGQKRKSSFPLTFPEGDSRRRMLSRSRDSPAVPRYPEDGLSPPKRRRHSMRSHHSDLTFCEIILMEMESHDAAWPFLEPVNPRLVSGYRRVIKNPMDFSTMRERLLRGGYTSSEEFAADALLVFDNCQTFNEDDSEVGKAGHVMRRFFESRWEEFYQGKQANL
T1: furA 1-165 (Synechocystis sp. PCC 6803); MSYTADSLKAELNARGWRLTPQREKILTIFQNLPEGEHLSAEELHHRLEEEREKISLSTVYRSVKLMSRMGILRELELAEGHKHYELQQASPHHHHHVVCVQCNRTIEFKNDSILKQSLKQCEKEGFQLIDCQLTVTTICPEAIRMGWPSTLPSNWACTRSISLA
B1: UGT1A9 (Homo sapiens, UniProt O60656); chain GKLLVVPMDGSHWFTMRSVVEKLILRGHEVVVVMPEVSWQLGRSLNCTVKTYSTSYTLEDLDREFKAFAHAQWKAQVRSIYSLLMGSYNDIFDLFFSNCRSLFKDKKLVEYLKESSFDAVFLDPFDNCGLIVAKYFSLPSVVFARGILCHYLEEGAQCPAPLSYVPRILLGFSDAMTFKERVRNHIMHLEEHLLCHRFFKNALEIASEILQTPVTEYDLYSHTSIWLLRTDFVLDYPKPVMPNMIFIGGINCHQGKPLPMEFEAYINASGEHGIVVFSLGSMVSEIPEKKAMAIADALGKIPQTVLWRYTGTRPSNLANNTILVKWLPQNDLLGHPMTRAFITHAGSHGVYESICNGVPMVMMPLFGDQMDNAKRMETKGAGVTLNVLEMTSEDLENALKAVINDKSYKENIMRLSSLHKDRPVEPLDLAVFWVEFVMRHKGAPHLRPAAHDLTWYQYHSLDVIGFLLAVVLTVAFITFKCCAYGYRKCLGKKGRVKKAHKSKTH
UniProt P19525, sequence (whole entry, looked up): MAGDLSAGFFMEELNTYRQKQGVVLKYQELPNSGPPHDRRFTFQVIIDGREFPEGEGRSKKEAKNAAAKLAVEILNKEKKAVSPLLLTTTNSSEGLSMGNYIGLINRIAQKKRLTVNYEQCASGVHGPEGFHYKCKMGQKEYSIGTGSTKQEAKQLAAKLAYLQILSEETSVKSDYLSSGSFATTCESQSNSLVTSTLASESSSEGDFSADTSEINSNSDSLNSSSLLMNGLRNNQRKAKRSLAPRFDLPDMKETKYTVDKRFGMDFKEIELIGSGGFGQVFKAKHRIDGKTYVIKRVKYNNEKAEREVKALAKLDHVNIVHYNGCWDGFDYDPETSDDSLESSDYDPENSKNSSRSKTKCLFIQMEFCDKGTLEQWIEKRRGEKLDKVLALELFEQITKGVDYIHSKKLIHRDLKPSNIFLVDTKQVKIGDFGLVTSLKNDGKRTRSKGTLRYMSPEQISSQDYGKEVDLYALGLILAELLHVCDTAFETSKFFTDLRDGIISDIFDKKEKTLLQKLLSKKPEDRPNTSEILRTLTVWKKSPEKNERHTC
UniProt Q15717, sequence (whole entry, looked up): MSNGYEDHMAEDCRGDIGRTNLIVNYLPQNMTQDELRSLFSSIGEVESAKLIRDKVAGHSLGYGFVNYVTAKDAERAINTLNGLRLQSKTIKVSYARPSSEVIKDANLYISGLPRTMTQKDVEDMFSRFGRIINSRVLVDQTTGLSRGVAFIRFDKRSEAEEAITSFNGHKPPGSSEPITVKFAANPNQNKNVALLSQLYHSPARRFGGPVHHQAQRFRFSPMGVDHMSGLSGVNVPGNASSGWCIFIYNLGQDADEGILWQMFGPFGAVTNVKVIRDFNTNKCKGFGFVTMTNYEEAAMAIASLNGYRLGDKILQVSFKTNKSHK
UniProt P19466, sequence (whole entry, unmodified, looked up): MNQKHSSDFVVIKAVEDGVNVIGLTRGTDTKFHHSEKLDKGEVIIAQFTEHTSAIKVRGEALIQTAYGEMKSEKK
UniProt Q9US51, sequence (whole entry, looked up): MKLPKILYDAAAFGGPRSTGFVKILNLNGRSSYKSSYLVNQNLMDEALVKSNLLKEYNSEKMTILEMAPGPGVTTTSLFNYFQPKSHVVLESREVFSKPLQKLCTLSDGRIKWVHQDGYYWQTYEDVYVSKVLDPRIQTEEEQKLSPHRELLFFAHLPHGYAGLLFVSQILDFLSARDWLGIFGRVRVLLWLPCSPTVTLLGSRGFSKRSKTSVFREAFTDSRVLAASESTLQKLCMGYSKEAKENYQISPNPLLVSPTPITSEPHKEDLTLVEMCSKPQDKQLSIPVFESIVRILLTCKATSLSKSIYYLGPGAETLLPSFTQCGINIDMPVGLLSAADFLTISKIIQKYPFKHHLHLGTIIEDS

Molecule | target or system | assay | test system | conditions | endpoint | value
TGTGAATAATGAGACAAGACTTATTATATCAGCCTTGATTTGCAGTGTCAAGAGGTAAATGTTTTTATTTATCTCTCGTGACGACTTTTATAATG (dsDNA) | sigA | competition with labeled DNA, competition EMSA | double-stranded DNA, one strand shown |  | binding | binds
GAGUUGAGUUGAGUUGAGUUGAGUUGAGUUGAGUUGAGUUGAGUUGAGUUGAGUU (ssRNA; single strand) | mtrB full length assumed T30V/K37A (Bacillus subtilis, UniProt P19466) | filter binding |  | added: no tryptophan | Kd | 92 ± 4 nM
CCATGGGTTCAACCCTGCTTAACATTTCTTAATAATTTTAGTTGCTATAAATTCTCATTTATGCCCCTATAATAATTCGGGAG (dsDNA) | T1, furA 1-165 (Synechocystis sp. PCC 6803) | EMSA | double-stranded DNA, one strand shown |  | binding | binds
GGGAAGUCUAAUGAUCAUAUUUAUUUAUUUAUAUGAACCAUGUCUAUUAAUUUAAUUAUUUAAUAAUAUUUAUAUUAAACUCCUUAUGUUACUUAACAUCUUCUGUAACAGAAGUCAGUACUCCUGUUGCGGAGAAAGGAGUCAUACUUGUGAUCUAGACU (ssRNA) | ELAVL1 full length assumed (Homo sapiens, UniProt Q15717) | EMSA |  | 200 nM | binding | binds
B1 (UGT1A9) | O=c1oc2cc(O)ccc2c(-c2ccccc2)c1-c1ccccc1 | steady-state kinetics |  | pH 7.4, 37 °C | Vmax | 0.000137 µmol/min/mg
GGGAGACCUAGCCUCAUAUAAUCGUUGUCCAGAAUUGUAUAUAUUCGUAGCAUAAGUUUUCCAAACAUUAUUUUGUUGUCGAAAAUUGUACAUAAGCCAAUUAAGCCGCUAAUUCU (ssRNA) | brat 756-1037 R875A (Drosophila melanogaster, UniProt Q8MQJ9) | EMSA |  |  | binding | no binding
GGGAGCAUCACGUCUUUGUCUCUAGUGCAGUUUUUCGAGAUAUUCCGUAGUACAUAUUUAUUUUUAAACAAC (ssRNA) | SOD1 fragment G94A (Homo sapiens) | EMSA |  | metallated | binding | binds
CTATTTCTCCTGGTAAGGAATCATCTGGTACATTTACATCATTACCACATATTGGACATTTTAATAGTACCATGATGGATCGAATAGAAATATAAAGTAAGCAGTTGAAAAGCTTTTATGAAATAAAAGGTTCGAAATTAGTACCAAACTCTAAGCACTATAGTACTGTTTGTACTTATAACGCCCTG (dsDNA) | lysM 1-140 (Sulfolobus acidocaldarius, UniProt Q4JAQ1) | Cu-OP in-gel footprinting | double-stranded DNA, one strand shown |  | binding | binds
TGTGAATAATGAGACAAGACTTATTATATCAGCCTTGATTTGCAGTGTTCCGAGGTAAATGTTTTTATTTATCTCTCGTGACGACTTTTATAATG (dsDNA) | sigA | competition with labeled DNA, competition EMSA | double-stranded DNA, one strand shown |  | binding | binds
AGUUCCAUGAUGUUUUCAAACUCUAUUACCUACAUUAUUUGAAC (structured RNA; hairpin, large stem-loop) | BAZ2A eAT-hook | competition, MST |  | competition with DNA | K1/2 | 0.277 ± 0.008 µM
GGGAGAGGCAAGUCGUUCGGUCGCGUUCGCUGUCGUCGCGUCUUGUAUGCCACUGUACCC / GGGTACAGTGGCATACAAGACGCGACGACAGCGAACGCGACCGAACGACTTGCCTCTCCC (chimeric DNA/RNA duplex; blunt, strand 2 RNA 23-38) | EIF2AK2 1-184 (Homo sapiens, UniProt P19525) | ITC |  | 20 °C, weak sites, two-site fit | Kd | 3500 ± 500 nM
TCTTTTTTTTTTTTTTTCTTTTTTCCTCC (dsDNA) | BAZ2A eAT-hook | MST | double-stranded DNA, one strand shown | 50 nM DNA | K1/2 | 10 ± 0.8 µM
CCACCGAATGGAACAAGAGAAGATTAGGAAACGTGGTCAACGTGGTAACCAAGGAATCATGAATTTTATGGGTGACATGGATGATTTGATGGAGGAGAATGATGATTACGATGATGGTACCAAGAGCGTTGAACATTCGATGAAACGAGTCAACCTGTCAGGTGAAAACGATCCTAGCCTTGCTTCCCGCCAACCTGCTCAATCGCAACAAC (dsDNA) | mtf1 (Schizosaccharomyces pombe, UniProt Q9US51) | EMSA | double-stranded DNA, one strand shown |  | binding | no binding

Repeated from above:
Molecule | target or system | assay | test system | conditions | endpoint | value
TGTGAATAATGAGACAAGACTTATTATATCAGCCTTGATTTGCAGTGTTCCGAGGTAAATGTTTTTATTTATCTCTCGTGACGACTTTTATAATG (dsDNA) | sigA | competition with labeled DNA, competition EMSA | double-stranded DNA, one strand shown |  | binding | binds
AGUUCCAUGAUGUUUUCAAACUCUAUUACCUACAUUAUUUGAAC (structured RNA; hairpin, large stem-loop) | BAZ2A eAT-hook | competition, MST |  | competition with DNA | K1/2 | 0.277 ± 0.008 µM
